# Experimental data gathered from unrelated publications.
# Protocols differ between the studies behind these lines. Several values in a cell are separate wells, animals, samples, runs or records.
# Spike glycoprotein: Spike glycoprotein (Severe acute respiratory syndrome coronavirus 2, UniProt P0DTC2)
# rep main protease: Replicase polyprotein 1ab, main protease (rep, Severe acute respiratory syndrome coronavirus 2, UniProt P0DTD1)
SMILES,tested on,assay,system,conditions,scale,endpoint,result
Cc1nc(N)c2cnn(CCCNC(=O)c3ccc(S(=O)(=O)F)cc3)c2n1,"Calmodulin-sensitive adenylate cyclase (cya, Bacillus anthracis, UniProt P40136)",,,,,kinact,0.00202 s⁻¹
CC1=C(/C=C/C(C)=C/C=C/C(C)=C/C=C/C=C(C)/C=C/C=C(C)/C=C/C2=C(C)CCCC2(C)C)C(C)(C)CCC1,Spike glycoprotein,"binding, BLI",,,,koff,0.0376 s⁻¹
CC(C)Cc1ccc([C@H](C)C(=O)O)cc1,rep main protease,"reporter gene (mKate2), inhibitor",,20 µM,,inhibition,0.136%
COc1cc2c(cc1O)[C@@H](Cc1ccc(O)c(Oc3ccc(C[C@@H]4c5cc(OC)c(OC)cc5CCN4C)cc3)c1)N(C)CC2,Spike glycoprotein,"binding, biolayer interferometry",,,,koff,0.0426 s⁻¹
Cn1cnc(Cn2c(=O)[nH]/c(=N\c3cc4cn(C)nc4cc3Cl)n(Cc3cc(F)c(F)cc3F)c2=O)n1,,,"human, mild renal impairment","oral, 375 mg, treatment-related dry mouth, Mild severity",,patients with adverse event,12.5%
Cc1cnoc1C(=O)NC[C@@H]1CC2(CCOCC2)CN1C(=O)c1cc(F)cc(C(N)=O)c1,rep main protease,"enzyme activity, inhibitor",,"5 µM, mean of runs",,inhibition,13.5%
O=C(N[C@@H](Cc1ccccc1)C(=O)O)OCc1ccccc1,rep main protease,"reporter gene (mKate2), inhibitor",,20 µM,,inhibition,-0.577%
CCc1c(C(=O)C(N)=O)c2c(OCC(=O)O)cccc2n1Cc1ccccc1,Daboia russelii venom phospholipase A2,"enzyme activity, inhibitor",GA population,"0.01 µM, added: NOB substrate",relative to: venom alone,remaining activity,94% and 86%
Nc1ncnc2c([C@@H]3N[C@H](CO)[C@@H](O)[C@H]3O)c[nH]c12,Severe acute respiratory syndrome coronavirus,"viral replication, inhibitor",Vero 76,29.6 µM,,inhibition,7.4%
O=C(N[C@@H]1CC[C@@H]2CCN(c3nc4[nH]ncc4c(=O)[nH]3)[C@H]1C2)c1ccc2c(c1)C(=O)NCC2,rep main protease,"enzyme activity, inhibitor",,"5 µM, mean of runs",,inhibition,11.4%
Cc1ccc(C)c(Nc2cc(C(=O)NCCCN(C)C3CCCCC3)c3ccccc3n2)c1,SARS-CoV-2,cytopathic effect,USA_WA1/2020,"retest, 8-point, duplicates",,maximum response,58.9%
CC[C@H](C)[C@H](NC(=O)[C@H](CC(C)C)NC(=O)[C@H](Cc1c[nH]c2ccccc12)NC(=O)[C@H](CCC(N)=O)NC(=O)[C@@H](NC(=O)[C@H](Cc1ccccc1)NC(=O)[C@H](C)NC(=O)[C@H](CCCCNC(=O)COCCOCCNC(=O)COCCOCCNC(=O)CC[C@H](NC(=O)CCCCCCCCCCCCCCCCCCC(=O)O)C(=O)O)NC(=O)[C@H](CCC(N)=O)NC(=O)[C@H](C)NC(=O)[C@@H](NC(=O)[C@H](CCCCN)NC(=O)[C@H](CC(=O)O)NC(=O)[C@H](CC(C)C)NC(=O)C(C)(C)NC(=O)[C@@H](NC(=O)[C@H](CO)NC(=O)[C@H](Cc1ccc(O)cc1)NC(=O)[C@H](CC(=O)O)NC(=O)[C@H](CO)NC(=O)[C@@H](NC(=O)[C@H](Cc1ccccc1)NC(=O)[C@@H](NC(=O)CNC(=O)[C@H](CCC(=O)O)NC(=O)C(C)(C)NC(=O)[C@@H](N)Cc1ccc(O)cc1)[C@@H](C)O)[C@@H](C)O)[C@@H](C)CC)[C@@H](C)CC)C(C)C)C(=O)N[C@@H](C)C(=O)NCC(=O)NCC(=O)N1CCC[C@H]1C(=O)N[C@@H](CO)C(=O)N[C@@H](CO)C(=O)NCC(=O)N[C@@H](C)C(=O)N1CCC[C@H]1C(=O)N1CCC[C@H]1C(=O)N1CCC[C@H]1C(=O)N[C@@H](CO)C(N)=O,,,healthy subjects,all MAD doses,,subjects with back pain,14.3%
O=c1cc(-c2ccccc2)oc2c(O)c(O)ccc12,Spike glycoprotein,"binding, BLI",,,,kon,1220 M⁻¹ s⁻¹
CN(C)c1ccc(-c2nc(-c3cccs3)c(-c3cccs3)[nH]2)cc1,SARS-CoV-2,"cytopathic effect, cell-based CPE",USA_WA1/2020,,,AC50,14.1 µM
CC1=CC(=O)[C@@H](O)[C@]2(C)[C@H]3[C@@H](O)[C@H](O)[C@@]4(C)OC[C@@]35[C@@H](C[C@@H]12)OC(=O)[C@H](O)[C@]54O,rep main protease,"reporter gene (mKate2), inhibitor",,20 µM,,inhibition,-1.02%
O=C(NC[C@H](NC(=O)c1cnoc1-c1ccccc1)c1ccc2ccccc2c1)c1cn[nH]n1,rep main protease,"enzyme activity, inhibitor",,"5 µM, run 2",,inhibition,13.8%
O=C(O)CCc1cc(C(=O)c2ccc(OC3CCCC3)cc2O)ccc1OCc1ccc2c(=O)[nH]oc2c1,rep main protease,"viral replication, mKate2 reporter",SARS-CoV-2,20 µM,,inhibition,-0.934%
Cc1ccc2[nH]ncc2c1C(=O)NC[C@H]1Cc2ccccc2CN1C(=O)C[C@H](C)c1ccco1,rep main protease,"enzyme activity, inhibitor",,"5 µM, mean of runs",,inhibition,11.3%

# For quick reference, copied from above:
SMILES,tested on,assay,system,conditions,scale,endpoint,result
O=c1cc(-c2ccccc2)oc2c(O)c(O)ccc12,Spike glycoprotein,"binding, BLI",,,,kon,1220 M⁻¹ s⁻¹
CN(C)c1ccc(-c2nc(-c3cccs3)c(-c3cccs3)[nH]2)cc1,SARS-CoV-2,"cytopathic effect, cell-based CPE",USA_WA1/2020,,,AC50,14.1 µM
